{"data": "Results pooled from the literature", "note": "Numbered parts are unrelated; each lists some results of a single study. Values joined by “and” are separate records of one study, mostly repeats; a detail may differ.", "chain of UniProt P19784 (whole entry, looked up)": "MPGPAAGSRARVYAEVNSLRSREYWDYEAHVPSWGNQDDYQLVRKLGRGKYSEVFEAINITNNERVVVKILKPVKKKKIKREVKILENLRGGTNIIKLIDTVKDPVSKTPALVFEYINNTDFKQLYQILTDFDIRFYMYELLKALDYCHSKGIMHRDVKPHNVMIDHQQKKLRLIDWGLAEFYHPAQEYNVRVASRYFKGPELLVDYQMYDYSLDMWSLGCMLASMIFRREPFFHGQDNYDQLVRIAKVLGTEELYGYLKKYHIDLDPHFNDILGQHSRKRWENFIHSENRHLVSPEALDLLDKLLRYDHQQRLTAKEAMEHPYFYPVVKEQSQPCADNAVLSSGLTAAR", "chain of UniProt Q8WU08 (whole entry, looked up)": "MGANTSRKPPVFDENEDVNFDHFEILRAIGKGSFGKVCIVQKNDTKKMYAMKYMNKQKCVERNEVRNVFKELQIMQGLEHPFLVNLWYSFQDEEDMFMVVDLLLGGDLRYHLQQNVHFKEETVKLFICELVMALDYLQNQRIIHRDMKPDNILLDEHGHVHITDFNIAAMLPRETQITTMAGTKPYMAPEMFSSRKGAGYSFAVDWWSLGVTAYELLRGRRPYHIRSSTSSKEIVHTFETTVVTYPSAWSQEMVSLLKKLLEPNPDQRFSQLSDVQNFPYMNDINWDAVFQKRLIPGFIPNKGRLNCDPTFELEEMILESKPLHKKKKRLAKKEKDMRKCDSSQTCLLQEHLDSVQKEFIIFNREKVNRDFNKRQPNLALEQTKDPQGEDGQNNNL", "chain of UniProt O96017 (whole entry, looked up)": "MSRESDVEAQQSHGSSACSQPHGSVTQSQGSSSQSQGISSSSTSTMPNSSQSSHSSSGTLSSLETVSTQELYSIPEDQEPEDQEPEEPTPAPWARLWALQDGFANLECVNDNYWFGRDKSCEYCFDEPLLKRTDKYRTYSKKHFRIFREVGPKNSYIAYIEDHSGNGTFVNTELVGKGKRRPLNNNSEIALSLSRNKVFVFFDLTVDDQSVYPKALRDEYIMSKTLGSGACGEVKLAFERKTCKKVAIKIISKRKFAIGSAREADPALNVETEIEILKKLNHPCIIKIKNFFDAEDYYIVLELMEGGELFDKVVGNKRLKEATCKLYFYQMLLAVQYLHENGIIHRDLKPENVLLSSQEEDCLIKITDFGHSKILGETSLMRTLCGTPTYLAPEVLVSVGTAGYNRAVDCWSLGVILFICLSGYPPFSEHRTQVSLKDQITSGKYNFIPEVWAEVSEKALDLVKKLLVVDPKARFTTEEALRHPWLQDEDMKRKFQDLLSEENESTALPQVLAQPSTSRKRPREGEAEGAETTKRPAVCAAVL", "chain of UniProt Q7L7X3 (whole entry, looked up)": "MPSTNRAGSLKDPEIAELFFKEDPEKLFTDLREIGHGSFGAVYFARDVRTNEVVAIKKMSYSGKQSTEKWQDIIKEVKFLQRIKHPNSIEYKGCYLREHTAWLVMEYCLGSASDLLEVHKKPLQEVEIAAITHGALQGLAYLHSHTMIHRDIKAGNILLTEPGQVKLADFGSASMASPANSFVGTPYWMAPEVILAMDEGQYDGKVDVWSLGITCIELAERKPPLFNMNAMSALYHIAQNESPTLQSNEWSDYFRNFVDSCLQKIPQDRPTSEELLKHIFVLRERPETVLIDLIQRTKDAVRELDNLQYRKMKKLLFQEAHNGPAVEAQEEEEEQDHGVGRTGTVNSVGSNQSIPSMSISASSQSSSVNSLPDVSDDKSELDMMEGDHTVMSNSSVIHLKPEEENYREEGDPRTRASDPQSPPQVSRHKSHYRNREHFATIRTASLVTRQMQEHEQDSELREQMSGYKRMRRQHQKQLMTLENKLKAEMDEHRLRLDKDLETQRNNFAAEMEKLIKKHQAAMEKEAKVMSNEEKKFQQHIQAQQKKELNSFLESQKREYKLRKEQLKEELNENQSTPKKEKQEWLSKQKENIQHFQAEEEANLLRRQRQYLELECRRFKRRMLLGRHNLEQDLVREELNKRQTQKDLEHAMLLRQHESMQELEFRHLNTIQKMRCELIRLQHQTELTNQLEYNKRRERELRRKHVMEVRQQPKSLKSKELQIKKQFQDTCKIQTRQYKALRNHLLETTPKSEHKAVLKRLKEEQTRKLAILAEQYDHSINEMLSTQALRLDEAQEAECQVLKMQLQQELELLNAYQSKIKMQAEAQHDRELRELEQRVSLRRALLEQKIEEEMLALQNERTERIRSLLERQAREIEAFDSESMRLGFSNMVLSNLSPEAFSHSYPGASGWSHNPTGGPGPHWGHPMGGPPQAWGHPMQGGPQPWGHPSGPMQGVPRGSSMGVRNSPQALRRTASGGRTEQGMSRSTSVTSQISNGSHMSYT", "chain of UniProt O75676 (whole entry, looked up)": "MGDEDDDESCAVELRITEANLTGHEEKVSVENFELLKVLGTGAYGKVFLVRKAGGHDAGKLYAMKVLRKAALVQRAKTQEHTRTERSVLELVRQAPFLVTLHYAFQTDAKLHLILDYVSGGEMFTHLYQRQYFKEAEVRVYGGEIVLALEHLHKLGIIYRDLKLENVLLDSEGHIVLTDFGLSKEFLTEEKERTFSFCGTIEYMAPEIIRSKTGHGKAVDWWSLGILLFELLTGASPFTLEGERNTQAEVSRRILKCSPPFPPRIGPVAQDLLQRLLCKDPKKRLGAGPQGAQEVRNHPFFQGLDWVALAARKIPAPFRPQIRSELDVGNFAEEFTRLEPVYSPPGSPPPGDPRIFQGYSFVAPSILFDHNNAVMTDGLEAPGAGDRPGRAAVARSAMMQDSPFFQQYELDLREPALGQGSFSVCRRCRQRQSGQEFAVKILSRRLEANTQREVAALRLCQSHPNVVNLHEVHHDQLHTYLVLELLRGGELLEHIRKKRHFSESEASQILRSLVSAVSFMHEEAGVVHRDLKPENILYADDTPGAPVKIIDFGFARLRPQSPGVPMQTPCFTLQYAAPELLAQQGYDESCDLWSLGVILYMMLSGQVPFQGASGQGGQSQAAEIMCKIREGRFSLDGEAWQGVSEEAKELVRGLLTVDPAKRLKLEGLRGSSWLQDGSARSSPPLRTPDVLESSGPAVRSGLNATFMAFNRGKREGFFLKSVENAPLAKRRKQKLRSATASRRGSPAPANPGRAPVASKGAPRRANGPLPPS"}
{"data": "Study 1", "Compound": "CC[C@@]1(c2cccc(C(F)(F)F)c2)C2=C(Nc3n[nH]cc31)[C@H](F)C(C)(C)CC2=O (single isomer, unassigned)", "tested at": "1 µM"}
{"target": "Serine/threonine-protein kinase Chk2 (CHEK2, Homo sapiens, UniProt O96017)", "assay": "binding, competition with immobilised ligand", "remaining binding [%]": 100}
{"target": "cGMP-dependent protein kinase 2 (PRKG2, Homo sapiens, UniProt Q13237)", "assay": "kinase binding, KINOMEscan", "scale": "baseline: DMSO control", "remaining binding [%]": 95}
{"target": "Receptor-type tyrosine-protein kinase FLT3 (FLT3, Homo sapiens, UniProt P36888, R834Q)", "assay": "kinase binding, KINOMEscan", "scale": "baseline: DMSO control", "remaining binding [%]": 100}
{"target": "Dual specificity tyrosine-phosphorylation-regulated kinase 1A (DYRK1A, Homo sapiens, UniProt Q13627)", "assay": "binding, competition with immobilised ligand", "remaining binding [%]": 71}
{"target": "Cyclin-dependent kinase 15 (CDK15, Homo sapiens, UniProt Q96Q40)", "assay": "kinase binding, KINOMEscan", "scale": "baseline: DMSO control", "remaining binding [%]": 100}
{"target": "Mitogen-activated protein kinase kinase kinase kinase 3 (MAP4K3, Homo sapiens, UniProt Q8IVH8)", "assay": "kinase binding, KINOMEscan", "scale": "baseline: DMSO control", "remaining binding [%]": 91}
{"target": "Ribosomal protein S6 kinase alpha-4, C-terminal kinase domain (RPS6KA4, Homo sapiens, UniProt O75676)", "assay": "binding, competition with immobilised ligand", "remaining binding [%]": 100}
{"target": "Serine/threonine-protein kinase TAO1 (TAOK1, Homo sapiens, UniProt Q7L7X3)", "assay": "binding, competition with immobilised ligand", "remaining binding [%]": 100}
{"target": "Serine/threonine-protein kinase 32A (STK32A, Homo sapiens, UniProt Q8WU08)", "assay": "kinase binding, KINOMEscan", "scale": "baseline: DMSO control", "remaining binding [%]": 100}
{"target": "Serine/threonine-protein kinase Nek4 (NEK4, Homo sapiens, UniProt P51957)", "assay": "binding, competition with immobilised ligand", "remaining binding [%]": 100}
{"target": "Casein kinase II subunit alpha' (CSNK2A2, Homo sapiens, UniProt P19784)", "assay": "kinase binding, KINOMEscan", "scale": "baseline: DMSO control", "remaining binding [%]": 100}
{"target": "Serine/threonine-protein kinase SBK1 (SBK1, Homo sapiens, UniProt Q52WX2)", "assay": "kinase binding, KINOMEscan", "scale": "baseline: DMSO control", "remaining binding [%]": 100}
{"target": "Ribosomal protein S6 kinase alpha-2, N-terminal kinase domain (RPS6KA2, Homo sapiens, UniProt Q15349)", "assay": "kinase binding, KINOMEscan", "scale": "baseline: DMSO control", "remaining binding [%]": 100}
{"data": "Study 2", "SMILES": "Cc1ccc(O)c(C)c1-c1cnc2[nH]c(-c3cnc(N4CCC(CN5CCN(c6ccc7c(c6F)CN(C6CCC(=O)NC6=O)C7=O)CC5)CC4)nc3)cc2c1C#N (centres unmarked)", "target": "Membrane-associated tyrosine- and threonine-specific cdc2-inhibitory kinase (PKMYT1, Homo sapiens, UniProt Q99640)", "chain of UniProt Q99640 (whole entry, looked up)": "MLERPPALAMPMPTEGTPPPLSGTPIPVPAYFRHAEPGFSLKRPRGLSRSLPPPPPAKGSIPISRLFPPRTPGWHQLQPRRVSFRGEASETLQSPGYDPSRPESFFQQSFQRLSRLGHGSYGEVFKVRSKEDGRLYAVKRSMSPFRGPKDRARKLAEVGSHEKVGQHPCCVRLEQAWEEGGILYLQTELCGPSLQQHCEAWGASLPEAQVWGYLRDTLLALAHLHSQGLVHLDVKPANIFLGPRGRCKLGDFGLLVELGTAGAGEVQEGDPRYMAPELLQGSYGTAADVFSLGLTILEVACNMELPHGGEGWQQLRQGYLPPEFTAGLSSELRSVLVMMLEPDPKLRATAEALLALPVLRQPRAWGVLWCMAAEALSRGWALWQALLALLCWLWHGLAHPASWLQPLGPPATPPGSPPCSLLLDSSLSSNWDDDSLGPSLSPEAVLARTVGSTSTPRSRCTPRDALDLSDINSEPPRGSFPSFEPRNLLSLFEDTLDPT"}
{"assay": "cell-free assay, inhibitor, TR-FRET", "conditions": "152 pM", "inhibition": "-7.63%"}
{"assay": "cell-free assay, inhibitor, TR-FRET", "conditions": "12.35 nM", "inhibition": "85.7%"}
{"conditions": "5.1e-05 µM", "inhibition": "-7.65%"}
{"conditions": "0.03704 µM", "inhibition": "96%"}
{"assay": "cell-free assay, inhibitor, TR-FRET", "conditions": "37.04 nM", "inhibition": "95.8%"}
{"conditions": "0.1111 µM", "inhibition": "99%"}
{"assay": "cell-free assay, inhibitor, TR-FRET", "conditions": "1 µM", "inhibition": "98.7%"}
{"conditions": "0.3333 µM", "inhibition": "99.3%"}
{"conditions": "0.00046 µM", "inhibition": "2.51%"}
{"assay": "cell-free assay, inhibitor, TR-FRET", "conditions": "0.3333 µM", "inhibition": "98.5%"}
{"assay": "cell-free assay, inhibitor, TR-FRET", "conditions": "51 pM", "inhibition": "-10.6%"}
{"assay": "cell-free assay, inhibitor, TR-FRET", "conditions": "4.12 nM", "inhibition": "44.7%"}
{"data": "Study 3", "Structure (SMILES)": "Cc1ncsc1-c1ccc(C(CO)NC(=O)C2CC(O)CN2C(=O)C(C(C)C)n2cc(-c3ccc(COc4c(-c5c(C)c(F)cc6[nH]ncc56)c(C5CC5)cc5c(N6CC7CC6CN7)nc(OC6CCOCC6)nc45)cc3)nn2)cc1 (centres unmarked)", "technique": "qRT-PCR", "host": "mouse, PK-59 xenograft", "sample": "tumour", "setting": "unit not given"}
{"assay": "measured: ETV4", "conditions": "intravenous, 10 mg/kg, 72 h", "scale": "baseline: vehicle, same time point", "mRNA level": "0.00561 and 0.00411 and 0.00474"}
{"assay": "measured: SPRY4", "conditions": "10 mg/kg, 144 h", "scale": "baseline: vehicle", "mRNA level": "0.452 and 0.46 and 0.893"}
{"assay": "measured: FOSL1", "conditions": "30 mg/kg, 48 h", "scale": "baseline: vehicle", "mRNA level": "0.0226 and 0.023 and 0.0248 and 0.025"}
{"assay": "measured: DUSP6", "conditions": "intravenous, 10 mg/kg, 24 h", "scale": "baseline: vehicle, same time point", "mRNA level": "0.0147 and 0.0209 and 0.0181"}
{"assay": "measured: DUSP6", "conditions": "intravenous, 10 mg/kg, 72 h", "scale": "baseline: vehicle, same time point", "mRNA level": "0.0351 and 0.0387"}
{"assay": "measured: DUSP6", "conditions": "intravenous, 30 mg/kg, 48 h", "scale": "baseline: vehicle, same time point", "mRNA level": "0.0125 and 0.0171"}
{"assay": "measured: MYC", "conditions": "intravenous, 30 mg/kg, 6 h", "scale": "baseline: vehicle, same time point", "mRNA level": "0.0323 and 0.0306 and 0.0288"}
{"assay": "measured: FOSL1", "conditions": "10 mg/kg, 144 h", "scale": "baseline: vehicle", "mRNA level": "0.36 and 0.227 and 0.238"}
{"data": "Study 4", "Structure (SMILES)": "C[C@@H]1CN(c2ccc(-c3cc(C(=O)NCCOCCOCCOCCOCCNC(=O)/C=C/c4[nH]cc(C(=O)N[C@@H](CC(N)=O)c5ccc(F)c(Cl)c5)c4-c4ccc(Cl)cc4F)ccc3F)cc2NC(=O)c2c[nH]c(=O)cc2C(F)(F)F)C[C@H](C)N1C", "effect on": "thermal unfolding", "technique": "differential scanning fluorimetry", "tested at": "5.5 µM", "direction": "higher = more unfolded", "WDR5": "WD repeat-containing protein 5 (WDR5, Homo sapiens, UniProt P61964)", "DCAF1": "DDB1- and CUL4-associated factor 1 (DCAF1, Homo sapiens, UniProt Q9Y4B6)", "chain of UniProt Q9Y4B6 (whole entry, looked up)": "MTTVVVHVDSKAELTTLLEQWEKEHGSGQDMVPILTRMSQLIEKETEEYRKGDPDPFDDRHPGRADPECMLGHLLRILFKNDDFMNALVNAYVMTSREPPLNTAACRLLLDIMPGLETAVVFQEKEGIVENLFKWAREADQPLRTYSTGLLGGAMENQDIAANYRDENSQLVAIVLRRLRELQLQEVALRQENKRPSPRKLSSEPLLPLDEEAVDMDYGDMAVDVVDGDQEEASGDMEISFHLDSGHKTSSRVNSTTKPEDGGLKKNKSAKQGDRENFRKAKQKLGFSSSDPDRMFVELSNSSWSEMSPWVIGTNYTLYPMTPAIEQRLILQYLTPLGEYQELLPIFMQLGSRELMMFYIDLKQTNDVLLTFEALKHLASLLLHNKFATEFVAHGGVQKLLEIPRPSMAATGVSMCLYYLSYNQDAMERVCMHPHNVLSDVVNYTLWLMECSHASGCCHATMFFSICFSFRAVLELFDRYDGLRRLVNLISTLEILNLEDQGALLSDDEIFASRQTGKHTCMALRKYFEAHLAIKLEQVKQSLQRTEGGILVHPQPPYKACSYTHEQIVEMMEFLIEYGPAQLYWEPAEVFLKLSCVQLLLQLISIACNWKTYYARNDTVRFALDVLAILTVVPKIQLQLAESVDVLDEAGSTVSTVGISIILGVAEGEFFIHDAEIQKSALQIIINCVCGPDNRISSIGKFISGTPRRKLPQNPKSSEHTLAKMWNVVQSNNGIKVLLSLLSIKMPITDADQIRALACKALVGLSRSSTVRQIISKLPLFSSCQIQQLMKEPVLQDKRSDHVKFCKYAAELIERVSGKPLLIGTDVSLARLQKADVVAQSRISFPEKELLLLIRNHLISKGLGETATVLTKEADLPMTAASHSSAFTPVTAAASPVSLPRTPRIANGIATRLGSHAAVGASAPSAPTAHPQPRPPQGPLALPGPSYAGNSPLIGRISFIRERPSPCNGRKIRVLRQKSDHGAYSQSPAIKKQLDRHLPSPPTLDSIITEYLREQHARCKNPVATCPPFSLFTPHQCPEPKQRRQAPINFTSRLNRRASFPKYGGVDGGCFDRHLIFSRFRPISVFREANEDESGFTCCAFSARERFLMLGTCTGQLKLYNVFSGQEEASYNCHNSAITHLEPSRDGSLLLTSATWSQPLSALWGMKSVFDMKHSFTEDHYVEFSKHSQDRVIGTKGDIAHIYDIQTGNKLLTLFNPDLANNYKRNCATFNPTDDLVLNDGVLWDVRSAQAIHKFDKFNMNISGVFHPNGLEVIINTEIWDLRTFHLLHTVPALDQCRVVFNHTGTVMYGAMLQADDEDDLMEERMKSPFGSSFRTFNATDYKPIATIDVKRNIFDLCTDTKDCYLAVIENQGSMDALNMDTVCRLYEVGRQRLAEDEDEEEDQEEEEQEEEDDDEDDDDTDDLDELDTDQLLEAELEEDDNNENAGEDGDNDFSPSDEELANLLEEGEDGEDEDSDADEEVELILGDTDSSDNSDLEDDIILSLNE"}
{"target": "WDR5", "conditions": "76.01 °C", "SYPRO Orange fluorescence [a.u.]": 28300}
{"target": "DCAF1", "conditions": "27.6 °C", "SYPRO Orange fluorescence [a.u.]": 8920}
{"target": "WDR5", "conditions": "62.01 °C", "SYPRO Orange fluorescence [a.u.]": 14900}
{"target": "WDR5", "conditions": "64.61 °C", "SYPRO Orange fluorescence [a.u.]": 14000}
{"target": "DCAF1", "conditions": "39.4 °C", "SYPRO Orange fluorescence [a.u.]": 11400}
{"target": "DCAF1", "conditions": "78.81 °C", "SYPRO Orange fluorescence [a.u.]": 46500}
{"target": "WDR5", "conditions": "37.6 °C", "SYPRO Orange fluorescence [a.u.]": 13800}
{"target": "WDR5", "conditions": "92.21 °C", "SYPRO Orange fluorescence [a.u.]": 48300}
{"note": "For quick reference, copied from above (study 1):"}
{"target": "Serine/threonine-protein kinase 32A (STK32A, Homo sapiens, UniProt Q8WU08)", "assay": "kinase binding, KINOMEscan", "scale": "baseline: DMSO control", "remaining binding [%]": 100}
{"target": "Serine/threonine-protein kinase Nek4 (NEK4, Homo sapiens, UniProt P51957)", "assay": "binding, competition with immobilised ligand", "remaining binding [%]": 100}
{"target": "Casein kinase II subunit alpha' (CSNK2A2, Homo sapiens, UniProt P19784)", "assay": "kinase binding, KINOMEscan", "scale": "baseline: DMSO control", "remaining binding [%]": 100}
{"target": "Serine/threonine-protein kinase SBK1 (SBK1, Homo sapiens, UniProt Q52WX2)", "assay": "kinase binding, KINOMEscan", "scale": "baseline: DMSO control", "remaining binding [%]": 100}
{"target": "Ribosomal protein S6 kinase alpha-2, N-terminal kinase domain (RPS6KA2, Homo sapiens, UniProt Q15349)", "assay": "kinase binding, KINOMEscan", "scale": "baseline: DMSO control", "remaining binding [%]": 100}
